Published values from different studies.
Every numbered part comes from another study and shows a few of its results, in no order.

Series 1
Cell line: HEK-293T/ACE2
Concentration: 10 µM
Time: 16 h
Baseline: vehicle
| Compound | viability [%] |
| --- | --- |
| Nc1ccn([C@@H]2CS[C@H](CO)O2)c(=O)n1 | 99 |
| NC(=O)CC[C@H](N)C(=O)O | 101 |
| C[N+]1(C)CCCC(OC(=O)C(O)(c2ccccc2)c2ccccc2)C1 (centres unmarked) | 99.8 |
| Nc1ncnc2c1ncn2[C@@H]1O[C@H](CO)[C@@H](O)[C@H]1O | 99.8 |
| CC(C)(C)C(=O)OCOP(=O)(COCCn1cnc2c(N)ncnc21)OCOC(=O)C(C)(C)C | 74.4 |

Series 2
Target: Replicase polyprotein 1ab, main protease (rep, Severe acute respiratory syndrome coronavirus 2, UniProt P0DTD1)
Observed: enzyme activity
Mode: inhibitor
Notes: no DTT
| Structure (SMILES) | IC50 [nM] |
| --- | --- |
| CO[C@@H]1[C@H](OC(=O)NC(=O)CCl)CC[C@]2(CO2)[C@H]1[C@@]1(C)O[C@@H]1CC=C(C)C | > 20000 |
| COc1ccc2[nH]c([S+]([O-])Cc3ncc(C)c(OC)c3C)nc2n1 (centres unmarked) | 1000 |
| C[C@@H]1O[C@@H](Oc2c(-c3cc(O)c(O)c(O)c3)oc3cc(O)cc(O)c3c2=O)[C@@H](O)[C@H](O)[C@H]1O | 3700 |
| CC(C)N(CCC(=O)c1ccc2ccccc2c1)Cc1ccccc1 | 600 |

Series 3
Target: Replicase polyprotein 1ab, polymerase (rep, Severe acute respiratory syndrome coronavirus 2, UniProt P0DTD1)
Observed: enzyme activity
Mode: inhibitor
Concentration: 20 µM
| Compound | inhibition |
| --- | --- |
| COCCCOc1cc(C[C@@H](C[C@H](N)[C@@H](O)C[C@H](C(=O)NCC(C)(C)C(N)=O)C(C)C)C(C)C)ccc1OC | -5.55% |
| C[C@]12C/C(=C/O)C(=O)C[C@@H]1CC[C@@H]1[C@@H]2CC[C@@]2(C)[C@H]1CC[C@]2(C)O | -3.21% |
| NC(=O)N/N=C/c1ccc(Oc2ccc(F)cc2)cc1 | -3.75% |
| COc1cc2c(cc1-c1c(C)noc1C)ncc1[nH]c(=O)n([C@H](C)c3ccccn3)c12 | -1.61% |
| C=C[C@@](C)(/C=C/c1ccc(O)cc1)CCC=C(C)C | -0.48% |
| C[C@]12CCC(=O)C=C1C=C[C@@H]1[C@@H]2CC[C@@]2(C)[C@H]1CC[C@@]21CCC(=O)O1 | -0.6% |
| C=CC[C@]1(O)CC[C@H]2[C@@H]3CCC4=CCCC[C@@H]4[C@H]3CC[C@@]21C | 0.62% |
| COc1ccccc1N1CCN(CCN2C(=O)c3ccccc3C(C)(C)C2=O)CC1 | -1.2% |
| O=[N+]([O-])c1ccc(O)c2ncccc12 | 5.98% |
| CCCCCCN(CCCCCC)C(=O)Cc1c(-c2ccc(F)cc2)[nH]c2ccccc12 | -3.49% |
| Nc1nc(=O)c2sc(=O)n([C@@H]3O[C@H](CO)[C@@H](O)[C@H]3O)c2[nH]1 | -0.17% |
| Cc1cc(O)c(C(=O)N[C@@H](C(=O)N[C@@H]2C(=O)N3C(C(=O)O)=C(CSc4nnnn4C)CS[C@H]23)c2ccc(O)cc2)cn1 | 4.01% |
| Cc1ccc(S(=O)(=O)NC(=O)NN2CC3CCC[C@@H]3C2)cc1 (stereo in doubt) | -8.9% |
| COC(=O)Nc1nc2cc(C(=O)c3ccc(F)cc3)ccc2[nH]1 | -16.4% |
| CC(C)(C)C(=O)OCOC(=O)[C@@H]1N2C(=O)C[C@H]2S(=O)(=O)C1(C)C | 2.33% |

Series 4
Target: PABPC1L2, full length, GST fusion (mouse, UniProt A0ABA7IW68)
Method: RNAcompete
Molecule type: RNA
Sample: in vitro
Concentration: 20 nM
Notes: 7-mer, probes averaged, single round
Baseline: mean of 7-mers
Reading: higher = stronger binding
Target sequence (chain): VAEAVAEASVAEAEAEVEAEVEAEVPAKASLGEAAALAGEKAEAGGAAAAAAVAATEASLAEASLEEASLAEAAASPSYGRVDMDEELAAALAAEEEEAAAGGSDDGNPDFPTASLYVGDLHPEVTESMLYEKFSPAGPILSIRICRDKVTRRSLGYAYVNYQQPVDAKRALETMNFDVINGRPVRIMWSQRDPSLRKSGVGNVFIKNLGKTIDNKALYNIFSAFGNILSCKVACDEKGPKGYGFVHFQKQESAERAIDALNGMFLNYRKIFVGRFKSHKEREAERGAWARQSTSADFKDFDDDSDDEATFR
| Sequence | 7-mer Z-score |
| --- | --- |
| UACAGUU | -0.304 |
| GGUUCAU | -0.26 |
| ACUCGAG | -0.197 |
| GUCUCAC | -0.222 |
| ACAAGGG | 0.588 |
| UAACAGU | -0.05 |
| GUGCAAU | 0.037 |
| GAAUUAU | -0.177 |
